Measurements gathered from unrelated publications.
Each line is one published result; not all experiments were run side by side. Substitutions count along the parent as printed. Numbers after ± are the reported error.
WRKY11 full length assumed: WRKY11 full length assumed (Arabidopsis thaliana, UniProt Q9SV15)
Chain of UniProt Q9SV15 (whole entry, looked up): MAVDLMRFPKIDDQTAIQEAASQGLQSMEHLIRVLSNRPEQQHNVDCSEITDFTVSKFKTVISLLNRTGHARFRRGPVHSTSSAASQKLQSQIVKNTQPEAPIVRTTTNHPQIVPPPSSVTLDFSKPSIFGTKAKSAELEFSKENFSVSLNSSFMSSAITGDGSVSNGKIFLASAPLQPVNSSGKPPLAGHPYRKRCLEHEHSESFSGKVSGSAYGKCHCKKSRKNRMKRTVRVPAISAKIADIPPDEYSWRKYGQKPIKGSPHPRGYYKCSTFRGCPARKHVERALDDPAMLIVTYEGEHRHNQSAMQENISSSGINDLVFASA
brat: brat 756-1037 (Drosophila melanogaster, UniProt Q8MQJ9)
Chain of UniProt Q8MQJ9 (whole entry, looked up): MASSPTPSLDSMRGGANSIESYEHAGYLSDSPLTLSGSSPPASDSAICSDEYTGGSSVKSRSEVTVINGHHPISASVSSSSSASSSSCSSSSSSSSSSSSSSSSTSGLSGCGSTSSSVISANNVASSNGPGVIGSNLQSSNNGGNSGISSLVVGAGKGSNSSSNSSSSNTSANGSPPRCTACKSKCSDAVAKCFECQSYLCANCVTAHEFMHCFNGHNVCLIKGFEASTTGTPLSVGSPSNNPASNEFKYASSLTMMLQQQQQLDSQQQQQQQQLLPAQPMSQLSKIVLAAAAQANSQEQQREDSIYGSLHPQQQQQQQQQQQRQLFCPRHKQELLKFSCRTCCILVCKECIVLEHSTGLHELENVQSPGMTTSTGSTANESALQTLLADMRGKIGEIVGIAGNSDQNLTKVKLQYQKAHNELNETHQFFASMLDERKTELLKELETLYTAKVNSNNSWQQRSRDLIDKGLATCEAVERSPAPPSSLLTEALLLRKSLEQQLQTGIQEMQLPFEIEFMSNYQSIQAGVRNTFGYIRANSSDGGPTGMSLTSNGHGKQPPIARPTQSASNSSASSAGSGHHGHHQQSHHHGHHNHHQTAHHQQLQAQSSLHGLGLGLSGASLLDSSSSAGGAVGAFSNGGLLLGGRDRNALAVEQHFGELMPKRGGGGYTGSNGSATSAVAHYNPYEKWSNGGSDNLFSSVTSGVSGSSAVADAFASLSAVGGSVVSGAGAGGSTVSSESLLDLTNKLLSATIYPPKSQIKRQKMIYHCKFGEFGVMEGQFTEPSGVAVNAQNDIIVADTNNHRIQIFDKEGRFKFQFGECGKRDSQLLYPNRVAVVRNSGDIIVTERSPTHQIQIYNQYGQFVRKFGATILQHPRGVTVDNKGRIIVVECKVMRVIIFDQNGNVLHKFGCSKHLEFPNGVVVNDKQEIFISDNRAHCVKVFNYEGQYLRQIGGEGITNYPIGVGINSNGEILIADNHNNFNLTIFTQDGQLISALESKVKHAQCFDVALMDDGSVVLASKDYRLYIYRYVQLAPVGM
Transcription factor bHLH93: Transcription factor bHLH93 (Gossypium hirsutum, UniProt A0ABM3A805)
polA D424A: polA fragment D424A (Escherichia coli)
T1: ZFP57 residues 227-287 C232F (Homo sapiens); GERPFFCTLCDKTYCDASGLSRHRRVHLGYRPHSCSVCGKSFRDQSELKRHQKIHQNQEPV
T2: Aebp2 223-496 (Mus musculus); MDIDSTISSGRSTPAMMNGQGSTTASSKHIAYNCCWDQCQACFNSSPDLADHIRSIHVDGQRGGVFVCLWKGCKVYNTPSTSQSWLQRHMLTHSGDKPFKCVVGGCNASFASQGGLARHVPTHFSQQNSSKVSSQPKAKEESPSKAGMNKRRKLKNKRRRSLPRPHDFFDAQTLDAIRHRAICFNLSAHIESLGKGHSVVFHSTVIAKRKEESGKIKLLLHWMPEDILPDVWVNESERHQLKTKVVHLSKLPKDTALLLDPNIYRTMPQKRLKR
T3: NFATC3 393-708; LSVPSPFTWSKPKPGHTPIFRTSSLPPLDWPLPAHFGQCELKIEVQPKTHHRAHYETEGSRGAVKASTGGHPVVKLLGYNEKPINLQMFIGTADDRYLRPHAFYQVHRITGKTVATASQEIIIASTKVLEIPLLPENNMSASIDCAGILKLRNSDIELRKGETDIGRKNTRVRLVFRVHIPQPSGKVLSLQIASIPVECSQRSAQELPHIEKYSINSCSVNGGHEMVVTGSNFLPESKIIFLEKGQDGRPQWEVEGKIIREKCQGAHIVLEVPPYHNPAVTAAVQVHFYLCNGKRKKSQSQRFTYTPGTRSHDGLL
P1: MED17 (Saccharomyces cerevisiae); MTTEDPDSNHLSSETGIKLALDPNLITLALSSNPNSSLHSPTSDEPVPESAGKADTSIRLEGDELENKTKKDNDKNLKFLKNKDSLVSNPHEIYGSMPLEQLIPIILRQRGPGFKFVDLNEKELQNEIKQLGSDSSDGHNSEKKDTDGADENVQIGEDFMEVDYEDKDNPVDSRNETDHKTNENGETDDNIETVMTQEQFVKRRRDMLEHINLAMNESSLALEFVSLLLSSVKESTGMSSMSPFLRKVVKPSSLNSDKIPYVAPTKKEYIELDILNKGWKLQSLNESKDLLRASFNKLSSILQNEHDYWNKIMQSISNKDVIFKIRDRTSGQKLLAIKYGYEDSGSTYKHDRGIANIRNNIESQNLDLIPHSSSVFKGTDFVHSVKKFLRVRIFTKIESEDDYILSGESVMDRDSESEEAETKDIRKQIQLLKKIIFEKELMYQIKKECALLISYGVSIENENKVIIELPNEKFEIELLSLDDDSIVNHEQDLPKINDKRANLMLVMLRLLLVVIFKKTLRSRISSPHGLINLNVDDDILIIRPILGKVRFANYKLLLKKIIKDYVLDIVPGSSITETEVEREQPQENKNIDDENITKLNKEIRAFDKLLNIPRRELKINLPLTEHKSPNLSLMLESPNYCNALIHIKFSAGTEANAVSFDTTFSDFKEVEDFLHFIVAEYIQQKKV
Chain of UniProt P17676 (whole entry, looked up): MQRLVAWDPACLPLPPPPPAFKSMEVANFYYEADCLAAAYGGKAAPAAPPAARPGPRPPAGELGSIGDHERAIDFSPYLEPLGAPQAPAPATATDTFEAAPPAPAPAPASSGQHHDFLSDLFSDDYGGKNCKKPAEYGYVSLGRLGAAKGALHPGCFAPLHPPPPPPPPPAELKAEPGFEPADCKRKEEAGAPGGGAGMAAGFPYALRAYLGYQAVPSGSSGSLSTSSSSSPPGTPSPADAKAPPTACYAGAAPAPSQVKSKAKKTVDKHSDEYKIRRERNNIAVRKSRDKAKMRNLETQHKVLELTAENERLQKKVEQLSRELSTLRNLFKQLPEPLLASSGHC
Chain of UniProt Q94JM3 (whole entry, looked up): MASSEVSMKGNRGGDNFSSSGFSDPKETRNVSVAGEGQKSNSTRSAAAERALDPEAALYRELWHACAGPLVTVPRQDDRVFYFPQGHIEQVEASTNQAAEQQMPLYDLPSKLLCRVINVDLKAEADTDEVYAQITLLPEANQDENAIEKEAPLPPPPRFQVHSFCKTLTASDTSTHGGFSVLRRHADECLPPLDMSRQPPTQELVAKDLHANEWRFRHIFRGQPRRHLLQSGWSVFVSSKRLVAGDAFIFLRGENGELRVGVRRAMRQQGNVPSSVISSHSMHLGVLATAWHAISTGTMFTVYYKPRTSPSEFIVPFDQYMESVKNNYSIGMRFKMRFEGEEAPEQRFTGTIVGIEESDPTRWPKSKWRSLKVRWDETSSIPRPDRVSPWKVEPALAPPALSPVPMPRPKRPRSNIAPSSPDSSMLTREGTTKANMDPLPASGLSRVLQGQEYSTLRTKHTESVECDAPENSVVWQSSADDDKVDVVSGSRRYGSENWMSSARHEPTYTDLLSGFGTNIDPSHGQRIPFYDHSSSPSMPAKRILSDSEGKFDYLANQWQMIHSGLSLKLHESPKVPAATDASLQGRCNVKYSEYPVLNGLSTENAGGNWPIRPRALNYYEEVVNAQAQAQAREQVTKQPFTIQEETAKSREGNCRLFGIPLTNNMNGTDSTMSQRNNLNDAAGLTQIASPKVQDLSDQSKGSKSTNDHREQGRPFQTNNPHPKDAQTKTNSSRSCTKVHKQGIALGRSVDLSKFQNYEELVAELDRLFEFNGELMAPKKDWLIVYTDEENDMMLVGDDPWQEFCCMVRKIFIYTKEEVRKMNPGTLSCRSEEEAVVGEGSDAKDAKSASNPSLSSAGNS
Chain of UniProt O31691 (whole entry, looked up): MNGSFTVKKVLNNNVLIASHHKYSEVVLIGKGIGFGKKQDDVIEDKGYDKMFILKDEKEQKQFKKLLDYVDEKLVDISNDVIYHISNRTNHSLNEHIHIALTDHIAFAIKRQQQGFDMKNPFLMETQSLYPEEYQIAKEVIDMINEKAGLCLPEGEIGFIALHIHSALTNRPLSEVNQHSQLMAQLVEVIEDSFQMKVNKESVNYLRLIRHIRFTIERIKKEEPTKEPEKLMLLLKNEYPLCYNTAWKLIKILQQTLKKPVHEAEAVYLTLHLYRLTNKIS
Chain of UniProt Q96PU8 (whole entry, looked up): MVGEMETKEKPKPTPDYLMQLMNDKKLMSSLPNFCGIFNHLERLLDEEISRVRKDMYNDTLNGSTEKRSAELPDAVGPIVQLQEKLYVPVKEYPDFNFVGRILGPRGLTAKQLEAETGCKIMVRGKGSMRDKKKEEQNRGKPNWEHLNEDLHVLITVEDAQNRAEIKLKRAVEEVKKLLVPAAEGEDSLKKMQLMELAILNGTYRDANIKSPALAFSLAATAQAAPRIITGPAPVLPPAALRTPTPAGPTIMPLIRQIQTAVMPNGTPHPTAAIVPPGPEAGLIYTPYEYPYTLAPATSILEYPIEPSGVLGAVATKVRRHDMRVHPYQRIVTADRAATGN
Chain of UniProt Q7Z739 (whole entry, looked up): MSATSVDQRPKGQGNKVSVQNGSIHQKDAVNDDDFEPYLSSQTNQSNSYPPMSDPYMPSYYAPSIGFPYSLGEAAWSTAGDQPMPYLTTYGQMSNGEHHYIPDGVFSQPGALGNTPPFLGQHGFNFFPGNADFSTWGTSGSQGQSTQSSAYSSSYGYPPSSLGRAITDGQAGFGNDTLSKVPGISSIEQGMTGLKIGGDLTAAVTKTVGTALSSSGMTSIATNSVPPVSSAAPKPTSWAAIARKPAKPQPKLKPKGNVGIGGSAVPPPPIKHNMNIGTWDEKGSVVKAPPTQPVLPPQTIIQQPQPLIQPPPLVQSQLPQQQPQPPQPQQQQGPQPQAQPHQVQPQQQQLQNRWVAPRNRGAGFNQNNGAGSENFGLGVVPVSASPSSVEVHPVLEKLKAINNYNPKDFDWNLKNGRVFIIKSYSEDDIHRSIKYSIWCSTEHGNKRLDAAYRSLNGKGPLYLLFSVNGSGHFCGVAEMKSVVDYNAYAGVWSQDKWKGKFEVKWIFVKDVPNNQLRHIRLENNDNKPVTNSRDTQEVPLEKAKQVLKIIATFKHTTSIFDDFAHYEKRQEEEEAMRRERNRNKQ
Chain of UniProt Q8IZQ5 (whole entry, looked up): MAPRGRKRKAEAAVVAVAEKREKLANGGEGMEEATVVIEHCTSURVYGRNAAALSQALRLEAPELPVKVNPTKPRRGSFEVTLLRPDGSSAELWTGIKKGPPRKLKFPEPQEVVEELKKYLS

Molecule	target or system	test	test system	conditions	how to read	quantity	value
CAGCAAATATTATTGACCAAGAAATGCAAA (dsDNA)	WRKY11 full length assumed	EMSA	double-stranded DNA, one strand shown	–	–	binding	no binding
UAUUAAGAAGUCGAAAAUUGUACAUAA (ssRNA)	brat	EMSA	RNA	–	–	binding	no binding
DNA 1 TTTTTTTTTTTGCAGATATGGGAAGAACTCGTCCCAAGTCTCACAG / DNA 2 CTGTGAGACTTGGGACGAGTTCTTCCCATATCTGC (dsDNA)	SELENOH 2-15 (Homo sapiens, UniProt Q8IZQ5)	BLI	double-stranded DNA	–	–	binding	no binding
DNA 1 AGGATTGTGCAATAT / DNA 2 ATATTGCGCAATCCT (dsDNA; 5mC, mismatch at central CpG)	CEBPB 269-344 (Homo sapiens, UniProt P17676)	fluorescence polarization	double-stranded DNA	–	–	binding	binds
GGUGCUCGCUUCGGCAGCACUAUACUAAAAU (structured RNA (Homo sapiens); hairpin, single-stranded flank)	QKI 76-205 (Homo sapiens, UniProt Q96PU8)	NMR titration	folded RNA	–	–	binding	binds
GCCGCCCGCGGCAGCCAAGA (dsDNA (Homo sapiens); 5-methylcytosine)	T1, ZFP57 residues 227-287 C232F (Homo sapiens)	EMSA	double-stranded DNA, one strand shown	–	–	binding	binds
ACATCGTATCCATGTGATATATCACA (dsDNA)	Transcription factor bHLH93	EMSA	double-stranded DNA, one strand shown	–	–	binding	binds
CCTCTTCCCTCACCTCTTCTTGACCTCATTCGTACCCATTGACCTTCGCAACCACCTGCGAAGGTCAATGGGTACGAATGAGGT (hairpin DNA; hairpin, 5' overhang, 3' ddT)	polA D424A	SPR	–	together with: dCTP 100 µM	–	Kd	0.09 ± 0.08 nM
TAGGATGTTTCAAGTGATGAGATACG (dsDNA)	Transcription factor bHLH93	EMSA	double-stranded DNA, one strand shown	–	–	binding	no binding
CCTCTTCCCTCACCTCTTCTTGACCTCATTCGTACCCATTGACCTTCGCAACCACCTGCGAAGGTCAATGGGTACGAATGAGGT (hairpin DNA; hairpin, 5' overhang, dG-C8-FABP 22, 3' ddT)	polA D424A	SPR	–	together with: dGTP 100 µM	–	Kd	0.66 ± 0.08 nM
CGTCTGCCTGCCCCCTTGAACTCCCCAAGAGCCAAGAACCAGCG (dsDNA)	Uncharacterized protein 424-651 (Zea mays, UniProt A0A1D6GZW1)	EMSA	double-stranded DNA, one strand shown	–	–	binding	binds
TTATTCAGCCATCAAAAGTTGACGAATAAT (dsDNA)	WRKY11 full length assumed	EMSA	double-stranded DNA, one strand shown	–	–	binding	no binding
GACAUGGUCCGGUAGUUCAGUUGGUUAGAAUGCCUGCCUGUCACGCAGGAGGUCGCGGGUUCGAGUCCCGUCCGGACCG (tRNA (Bacillus subtilis); 5'-GMPS, tRNA fold)	PRORP1 77-572 N136A (Arabidopsis thaliana, UniProt Q66GI4)	fluorescence anisotropy	folded RNA	NaCl 330 mM	reference: wild-type target, higher = weaker binding	relative affinity	6.3 fold
ACUUGGUUUAACUUCAUUUGUGACCUUUUCUUGUA (ssRNA)	Uncharacterized protein (Zea mays, UniProt K7TID7)	EMSA	RNA	–	–	binding	binds
ACAATGGAAATATCTTCAAATTATCTCAACACTTATGGCCAGTTATCGGGTGTC (dsDNA)	T2, Aebp2 223-496 (Mus musculus)	competition binding	double-stranded DNA, one strand shown	together with: labelled T1 probe	–	binding	binds
GTCGACCAGCTGAGTCGACCAGCTG (ssDNA; N6-methyl-dA)	YTHDF3 400-585 (Homo sapiens, UniProt Q7Z739)	pull-down	single-stranded DNA	–	–	binding	binds
ATCAGTCTAGACATACA (dsDNA)	Smad5 1-143 H80A (Mus musculus, UniProt P97454)	EMSA	double-stranded DNA, one strand shown	–	–	binding	binds

Molecule	target or system	test	test system	conditions	how to read	quantity	value
ACGUGUUACUGAUUCGAUCAGGCAUGAGU (ssRNA (Bacillus subtilis); hairpin, two internal loops)	glcT 1-60 (Bacillus subtilis, UniProt O31691)	EMSA	folded RNA	–	–	binding	binds
TGCTGATTGGCCATGTGCGCTACACCGAGGGGCGGGG (dsDNA)	HIF1A/ARNT (Homo sapiens)	competition with unlabelled DNA, competition EMSA	double-stranded DNA, one strand shown	not purified	–	binding	binds
TTATTCAGCCATCAAAAGATGACCAATAAT (dsDNA)	WRKY11 full length assumed	EMSA	double-stranded DNA, one strand shown	–	–	binding	no binding
TTGAAAACAACACTTGTCCTCTAGGA (dsDNA)	Transcription factor bHLH93	EMSA	double-stranded DNA, one strand shown	–	–	binding	binds
GATCTTTAGTTAACAAAAAAACTGTCTGCAGGCCACTCCAGATC (dsDNA)	T2, Aebp2 223-496 (Mus musculus)	competition binding	double-stranded DNA, one strand shown	together with: labelled T1 probe	–	binding	no binding
TTATTCAGCCATCAAAAGCTGACCAATAAT (dsDNA)	WRKY11 full length assumed	EMSA	double-stranded DNA, one strand shown	–	–	binding	no binding
AGTCTTTTTGGTCTCTGGTCGGTCGACAATCCGTGTG (dsDNA; 5-C6-amino-dT labels)	ARF2 1-395 (Arabidopsis thaliana, UniProt Q94JM3)	smFRET titration	double-stranded DNA, one strand shown	–	–	K1/2	362 nM
AGGAAGTTTTCCGCTGGT (dsDNA)	T3, NFATC3 393-708	EMSA	double-stranded DNA, one strand shown	–	–	binding	binds
TTATTCAGCCATCAAAAGTTGATCAATAAT (dsDNA)	WRKY11 full length assumed	EMSA	double-stranded DNA, one strand shown	–	–	binding	no binding
P1 V670E	MED5 (Saccharomyces cerevisiae)	co-IP mass spectrometry	crude extract	–	higher = more binding	peptide counts	13
GATCTTTAGTTAACTTCCTCTCTGTCTGAAAAAAACTCCAGATC (dsDNA)	T2, Aebp2 223-496 (Mus musculus)	competition binding	double-stranded DNA, one strand shown	together with: labelled T1 probe	–	binding	no binding
TTATTCAGCCATCAAAAGTTGACCGATAAT (dsDNA)	WRKY11 full length assumed	EMSA	double-stranded DNA, one strand shown	–	–	binding	binds
ATCGATTCACATTCTTCTACATGATAACCACCAGTTGTGCCAGCACCATTTGTT (dsDNA)	T2, Aebp2 223-496 (Mus musculus)	competition binding	double-stranded DNA, one strand shown	together with: labelled T1 probe	–	binding	binds
TTATTCAGCCATCAAAAGTAGACCAATAAT (dsDNA)	WRKY11 full length assumed	EMSA	double-stranded DNA, one strand shown	–	–	binding	no binding
GGGAGACCUAGCCUCAUAUAAUCGUUGUCCAGAAUUGUAUAUAUUCGUAGCAUAAGUUUUCCAAACAUUAUUGGGUUGUCGAAAAUUGUACAUAAGCCAAUUAAGCCGCUA (ssRNA)	brat	EMSA	RNA	–	–	binding	no binding
GATCTTTAGTTAACTTCCTCTCAGGCCACTCCAGATC (dsDNA)	T2, Aebp2 223-496 (Mus musculus)	competition binding	double-stranded DNA, one strand shown	together with: labelled T1 probe	–	binding	no binding
TTGGTTGACTATCAACATCTTATTGACCAAAT (dsDNA)	WRKY11 full length assumed	EMSA	double-stranded DNA, one strand shown	two complexes	–	binding	binds

Excerpt of the above:
Molecule	target or system	test	test system	conditions	how to read	quantity	value
TTATTCAGCCATCAAAAGCTGACCAATAAT (dsDNA)	WRKY11 full length assumed	EMSA	double-stranded DNA, one strand shown	–	–	binding	no binding
AGTCTTTTTGGTCTCTGGTCGGTCGACAATCCGTGTG (dsDNA; 5-C6-amino-dT labels)	ARF2 1-395 (Arabidopsis thaliana, UniProt Q94JM3)	smFRET titration	double-stranded DNA, one strand shown	–	–	K1/2	362 nM
